# Published values gathered from unrelated publications.
# Lines come from different studies, so protocols differ. Values joined by “and” are separate records of one study, mostly repeats; a detail may differ. ± marks the error that the study gave.
Structure (SMILES),organism,test,test system,setting,scale,quantity,value
C=C1C(=O)OC2C1CCC(C)(O)C13C=CC(C)(C21)C1(C3)C(=O)OC2C3C(C)C(=O)CC3C(=C)CC(OC(C)=O)C21 (centres unmarked),Danio rerio,,,"concentration not given, HFD-fed larvae NAFLD model",,MDA content,decreased
Nc1nc(-c2ccc(OC(F)(F)F)cc2)nc2[nH]nc(Nc3ccccc3)c12,rhinovirus B48,viral cytopathic effect,HeLa,,,IC50,6540 nM
c1ccc(CN2CCOCCOCCN(CCCCCCCCCCN3CCOCCOCCN(CCCCCCCCCCN4CCOCCOCCN(Cc5ccccc5)CCOCCOCC4)CCOCCOCC3)CCOCCOCC2)cc1,Klebsiella pneumoniae,,ATCC BAA-2146,"2.5 µM, added: tetracycline",,tetracycline MIC,900 ± 100 µM
COc1ccc(Nc2n[nH]c3nc(-c4ccccc4)nc(N)c23)cc1OC,rhinovirus B48,viral cytopathic effect,HeLa,,,IC50,2950 nM
Cc1ccc(S(=O)(=O)Nn2c3c(cc(-c4nc5ccccc5s4)c2=O)CCCCCC3)cc1,herpes simplex virus 1,"viral replication, plaque",Vero,"non-toxic dose, mean of three titres",,plaque reduction,63.3%
c1ccc(CN2CCOCCOCCN(CCCCCCCCN3CCOCCOCCN(CCCCCCCCN4CCOCCOCCN(Cc5ccccc5)CCOCCOCC4)CCOCCOCC3)CCOCCOCC2)cc1,Klebsiella pneumoniae,"tetracycline MIC, checkerboard",ATCC BAA-2146,"quarter MIC, added: tetracycline",relative to: MIC alone over combination,fold enhancement,4 fold
CC1(F)CN(C(=O)Cn2c(=O)c(C(=O)NCc3ccc(Cl)cc3)cc3nc(N4CCN(CCN)C4=O)cnc32)C1,Human betaherpesvirus 5,"viral replication, inhibitor",AD169,,,EC50,285 nM
COC1C=COC2(C)Oc3c(C)c(O)c4c(c3C2=O)C2=NC3(CCN(CC(C)C)CC3)NC2=C(NC(=O)C(C)=CC=CC(C)C(O)C(C)C(O)C(C)C(OC(=O)Nc2cccnn2)C1C)C4=O (centres unmarked),Mycobacteroides abscessus,bacterial growth,subsp. abscessus K21 clinical isolate,,,IC90,219 nM
Cc1cc(Cl)cc(S(C)=NC#N)c1NC(=O)c1cc(Br)nn1-c1ncccc1Cl (centres unmarked),Spodoptera litura,,Brassica oleracea field,"50 ppm, 168 h, 10% wettable powder",,corrected larval mortality,86.8%
CN(C)S(=O)(=O)c1ccc(S(=O)(=O)N2CCC(n3c(=O)[nH]c4ccccc43)CC2)cc1,Klebsiella pneumoniae,,"ATCC 700603, mouse lung infection model, lung","6 mg/kg, 24 h",,lung bacterial burden,5.65 log CFU and 4.55 log CFU and 4.1 log CFU and 6.14 log CFU
C[C@@H]1C(=O)O[C@@H](C)/C=C/C=C\[C@@H](C)[C@@H]2C=C[C@@H]3C[C@@]4(C)O[C@H]4[C@@H](C)[C@H]3[C@@H]2C(=O)C(Cl)(Cl)C1=O,Staphylococcus aureus,,MSSA clinical isolate,resistant PEN/CLI/ERY/SXT,,MIC,0.05 µg/mL
O=C(Nn1c(-c2cccc(Cl)c2)nc2ccccc2c1=O)c1ccccc1,Fasciola hepatica,"motility, ex vivo",immature flukes,,,IC50,1120 ± 110 nM
Nc1nc(-c2ccccc2)nc2[nH]nc(Nc3ccc(F)cc3)c12,rhinovirus B48,viral cytopathic effect,HeLa,,,IC50,130 nM
CC(=O)O[C@@H]1[C@@H](OC(C)=O)[C@H](Sc2sc(C(=O)c3ccc(Br)cc3)c(N)c2-c2nc3ccccc3s2)OC[C@@H]1OC(C)=O,herpes simplex virus 1,plaque reduction,,"non-toxic dose NG, mean over three titres",,viral reduction,40%
c1ccc(CN2CCOCCOCCN(CCCCCCCCCCCCCCN3CCOCCOCCN(CCCCCCCCCCCCCCN4CCOCCOCCN(Cc5ccccc5)CCOCCOCC4)CCOCCOCC3)CCOCCOCC2)cc1,Klebsiella pneumoniae,"tetracycline MIC, checkerboard",ATCC BAA-2146,"quarter MIC, added: tetracycline",relative to: MIC alone over combination,fold enhancement,3 fold
CC(C)(C)NCC(SS(=O)(=O)O)c1ccccc1 (centres unmarked),Schistosoma mansoni,,mice,"600 mg/kg single dose, 1056 h, dosed day 7, perfused 44",relative to: vehicle,female worm burden reduction,28%
Cc1nc(N)c2c(Nc3ccc(F)cc3)n[nH]c2n1,rhinovirus B48,viral cytopathic effect,HeLa,,,IC50,75900 nM
Cc1cc(C(=O)Nc2nc3cccc(C)c3n2[C@H]2CCCCN(C(=O)/C=C/CN(C)C)C2)ccn1,Trypanosoma brucei brucei,"growth inhibition, CellTiter-Glo",Lister 427 bloodstream form,48 h,,EC50,85 nM
CC(=O)OC[C@H]1O[C@@H](Sc2sc(C(=O)c3ccc(Br)cc3)c(N)c2-c2nc3ccccc3s2)[C@H](OC(C)=O)[C@@H](OC(C)=O)[C@H]1OC(C)=O,herpes simplex virus 1,plaque reduction,,"non-toxic dose NG, mean over three titres",,viral reduction,40%
CCCC(=O)C#Cc1ccc(F)c(F)c1,Pseudomonas aeruginosa,"microbial growth, absorbance",,"100 µM, 24 h",,activity vs control,95%
CCCCCCCCCC(=O)N[C@@H](Cc1c[nH]c2ccccc12)C(=O)N[C@H](CC(N)=O)C(=O)N[C@@H](CC(=O)O)C(=O)N[C@@H]1C(=O)NCC(=O)N[C@@H](CCCNC(=O)OC2/C=C/CCCCC2)C(=O)N[C@@H](CC(=O)O)C(=O)N[C@H](C)C(=O)N[C@@H](CC(=O)O)C(=O)NCC(=O)N[C@H](CO)C(=O)N[C@@H]([C@H](C)CC(=O)O)C(=O)N[C@@H](CC(=O)c2ccccc2N)C(=O)O[C@@H]1C (some centres unmarked),Staphylococcus aureus,"planktonic bacterial growth, isothermal microcalorimetry",MRSA,"1.0 µg/mL, 24 h, 37 °C, added: TAG hydrogel",,peak heat flow time,0 h
Cc1cccc2c1N(C(=O)n1ccnn1)CC2,Arabidopsis thaliana,,"wild type, seeds","10 µM, high ambient temperature",,germination rate,0% and 8% and 76.5% and 14% and 18.2% and 10%
Nc1nc(-c2ccccc2)nc2[nH]nc(Nc3ccc(OC(F)(F)F)cc3)c12,rhinovirus B48,viral cytopathic effect,HeLa,,,IC50,1500 nM
C=C[C@]1(C)C[C@@H](OC(=O)CSc2ccc(NC(=O)c3ccco3)cc2)[C@]2(C)[C@H](C)CC[C@]3(CCC(=O)[C@H]32)[C@@H](C)[C@@H]1O,Mycoplasma gallisepticum,PK/PD fit,infected chickens,,,maximum antibacterial effect,4.29 log10 CFU/mL
Nc1nc(-c2ccccc2)nc2[nH]nc(Nc3cc(F)ccc3F)c12,rhinovirus B48,viral cytopathic effect,HeLa,,,IC50,690 nM
C=C(NC(=O)c1csc(-c2nc3c(cc2O)-c2nc(cs2)C(=O)NC(C(C)O)C(=O)NC(=C(C)OC)c2nc(cs2)C(=O)NC2c4nc(cs4)C(=O)NC(COC(=O)c4c5c6c(cccc6n4O)COC(=O)C(OC4CC(C)(O)C(N(C)C)C(C)O4)C2OC5)c2nc-3cs2)n1)C(N)=O (centres unmarked),Staphylococcus epidermidis,"microbial growth, broth dilution",,clinical isolate,,MIC50,0.0156 µg/mL
NCCOCCO.O=C(O)C(Cl)Cl,Solanum nigrum,herbicidal activity,,"15 mg/mL, 21 days, post-emergence greenhouse",,inhibition,0%
O=C(NCC(O)(Cn1cncn1)c1ccc(F)cc1F)[c-]1cccc1.[Cl-].[Co+3].c1cc[cH-]c1 (racemic),Candida glabrata,EUCAST,,,,MIC50,100 µM
Cc1ccc(Nc2n[nH]c3nc(-c4cccc(F)c4)nc(N)c23)cc1,rhinovirus B48,viral cytopathic effect,HeLa,,,IC50,370 nM
CC1(C)[C@H](NC(=O)/C(=N\OCC(=O)N2CCC(C(=O)O)C2)c2nsc(N)n2)C(=O)N1OS(=O)(=O)O (some centres unmarked),Enterobacter aerogenes,agar dilution,"ATCC 13048, susceptible",,,MIC,4 µg/mL
CC[C@H](C)CCCCC(=O)N[C@@H](CCN)C(=O)N[C@H](C(=O)N[C@@H](CCN)C(=O)N[C@H]1CCNC(=O)[C@H]([C@@H](C)O)NC(=O)[C@H](CCN)NC(=O)[C@H](CCN)NC(=O)[C@H](CC(C)C)NC(=O)[C@@H](CC(C)C)NC(=O)[C@H](CCN)NC1=O)[C@@H](C)O,Klebsiella pneumoniae,,"BAA-2784, BALB/c mouse peritonitis, peritoneal fluid",dose not given,,bacterial load,9.33 log CFU and 9.86 log CFU and 9.53 log CFU and 9.49 log CFU and 9.52 log CFU
CC1(C)[C@H](NC(=O)/C(=N\OC2(C(=O)O)CC2)c2nsc(N)n2)C(=O)N1OS(=O)(=O)O,Enterobacter aerogenes,agar dilution,"ATCC 13048, susceptible",,,MIC,1 µg/mL
Nc1nc(-c2ccccc2)nc2[nH]nc(Nc3c(F)cc(F)cc3F)c12,rhinovirus B48,viral cytopathic effect,HeLa,,,IC50,7960 nM
CC(O)CNCC(C)O.O=C(O)C(Cl)Cl (centres unmarked),Solanum nigrum,herbicidal activity,,"15 mg/mL, 21 days, pre-emergence greenhouse",,inhibition,0%
CC1(C)[C@H](NC(=O)/C(=N\OCCN)c2nsc(N)n2)C(=O)N1OS(=O)(=O)O,Enterobacter aerogenes,agar dilution,"ATCC 13048, susceptible",,,MIC,16 µg/mL

# A few entries again:
Structure (SMILES),organism,test,test system,setting,scale,quantity,value
Cc1cc(C(=O)Nc2nc3cccc(C)c3n2[C@H]2CCCCN(C(=O)/C=C/CN(C)C)C2)ccn1,Trypanosoma brucei brucei,"growth inhibition, CellTiter-Glo",Lister 427 bloodstream form,48 h,,EC50,85 nM
COC1C=COC2(C)Oc3c(C)c(O)c4c(c3C2=O)C2=NC3(CCN(CC(C)C)CC3)NC2=C(NC(=O)C(C)=CC=CC(C)C(O)C(C)C(O)C(C)C(OC(=O)Nc2cccnn2)C1C)C4=O (centres unmarked),Mycobacteroides abscessus,bacterial growth,subsp. abscessus K21 clinical isolate,,,IC90,219 nM
C=C[C@]1(C)C[C@@H](OC(=O)CSc2ccc(NC(=O)c3ccco3)cc2)[C@]2(C)[C@H](C)CC[C@]3(CCC(=O)[C@H]32)[C@@H](C)[C@@H]1O,Mycoplasma gallisepticum,PK/PD fit,infected chickens,,,maximum antibacterial effect,4.29 log10 CFU/mL
